# Measured values from different studies.
# Numbered parts are unrelated; each lists some results of a single study.
# UniProt Q07912, sequence (whole entry, looked up): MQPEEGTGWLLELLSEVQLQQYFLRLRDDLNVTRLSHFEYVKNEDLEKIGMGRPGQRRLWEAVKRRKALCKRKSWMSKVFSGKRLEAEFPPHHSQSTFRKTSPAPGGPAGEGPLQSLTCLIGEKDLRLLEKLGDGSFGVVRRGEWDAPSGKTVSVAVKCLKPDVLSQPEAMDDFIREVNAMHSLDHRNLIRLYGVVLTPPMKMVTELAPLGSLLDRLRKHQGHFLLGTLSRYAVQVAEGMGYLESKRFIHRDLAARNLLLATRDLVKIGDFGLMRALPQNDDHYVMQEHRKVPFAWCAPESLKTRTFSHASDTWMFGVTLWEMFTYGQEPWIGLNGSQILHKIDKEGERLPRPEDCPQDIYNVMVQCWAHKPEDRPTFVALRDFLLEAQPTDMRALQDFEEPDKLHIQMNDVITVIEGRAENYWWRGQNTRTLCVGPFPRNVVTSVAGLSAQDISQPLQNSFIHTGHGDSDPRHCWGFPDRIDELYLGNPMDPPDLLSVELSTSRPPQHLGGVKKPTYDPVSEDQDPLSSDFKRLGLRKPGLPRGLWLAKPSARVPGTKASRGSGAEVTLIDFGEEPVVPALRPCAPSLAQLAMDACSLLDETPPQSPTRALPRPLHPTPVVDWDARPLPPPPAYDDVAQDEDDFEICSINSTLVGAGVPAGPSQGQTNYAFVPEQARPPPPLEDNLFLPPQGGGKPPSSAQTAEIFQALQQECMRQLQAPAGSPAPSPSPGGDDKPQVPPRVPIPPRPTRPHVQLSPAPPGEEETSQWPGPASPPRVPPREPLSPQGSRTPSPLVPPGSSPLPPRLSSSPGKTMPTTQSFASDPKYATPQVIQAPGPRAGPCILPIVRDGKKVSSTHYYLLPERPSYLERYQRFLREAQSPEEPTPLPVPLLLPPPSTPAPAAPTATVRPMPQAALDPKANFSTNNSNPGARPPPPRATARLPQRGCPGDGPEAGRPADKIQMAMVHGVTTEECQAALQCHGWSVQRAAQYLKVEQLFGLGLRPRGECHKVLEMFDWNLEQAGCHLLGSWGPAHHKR
# UniProt P10721, sequence (whole entry, looked up): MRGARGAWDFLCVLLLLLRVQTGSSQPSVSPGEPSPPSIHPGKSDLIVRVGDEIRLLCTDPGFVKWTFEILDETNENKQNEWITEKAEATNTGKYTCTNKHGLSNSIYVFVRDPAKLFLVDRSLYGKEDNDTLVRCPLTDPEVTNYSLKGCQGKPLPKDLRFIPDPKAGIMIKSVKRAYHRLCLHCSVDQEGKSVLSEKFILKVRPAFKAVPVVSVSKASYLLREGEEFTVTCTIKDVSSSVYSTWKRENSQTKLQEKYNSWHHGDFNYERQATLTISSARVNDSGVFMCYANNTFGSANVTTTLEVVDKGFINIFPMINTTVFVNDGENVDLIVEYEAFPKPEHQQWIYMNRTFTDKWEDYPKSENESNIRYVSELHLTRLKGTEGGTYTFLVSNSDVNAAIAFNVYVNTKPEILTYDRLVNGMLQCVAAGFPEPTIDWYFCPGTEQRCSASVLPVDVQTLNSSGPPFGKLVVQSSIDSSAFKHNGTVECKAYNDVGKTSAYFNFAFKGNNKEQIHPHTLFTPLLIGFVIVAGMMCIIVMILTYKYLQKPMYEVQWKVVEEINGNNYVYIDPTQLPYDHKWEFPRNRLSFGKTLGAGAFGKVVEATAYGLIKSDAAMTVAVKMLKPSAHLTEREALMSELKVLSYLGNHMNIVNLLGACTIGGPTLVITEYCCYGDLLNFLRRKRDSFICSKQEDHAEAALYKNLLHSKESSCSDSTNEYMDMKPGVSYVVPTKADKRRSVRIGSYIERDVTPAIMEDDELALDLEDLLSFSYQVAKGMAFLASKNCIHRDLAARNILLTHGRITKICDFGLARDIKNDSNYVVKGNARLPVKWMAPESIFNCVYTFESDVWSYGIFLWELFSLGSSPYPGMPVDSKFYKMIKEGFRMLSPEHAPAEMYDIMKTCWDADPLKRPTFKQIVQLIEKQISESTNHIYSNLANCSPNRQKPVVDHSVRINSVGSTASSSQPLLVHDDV
# UniProt Q9UPZ9, sequence (whole entry, looked up): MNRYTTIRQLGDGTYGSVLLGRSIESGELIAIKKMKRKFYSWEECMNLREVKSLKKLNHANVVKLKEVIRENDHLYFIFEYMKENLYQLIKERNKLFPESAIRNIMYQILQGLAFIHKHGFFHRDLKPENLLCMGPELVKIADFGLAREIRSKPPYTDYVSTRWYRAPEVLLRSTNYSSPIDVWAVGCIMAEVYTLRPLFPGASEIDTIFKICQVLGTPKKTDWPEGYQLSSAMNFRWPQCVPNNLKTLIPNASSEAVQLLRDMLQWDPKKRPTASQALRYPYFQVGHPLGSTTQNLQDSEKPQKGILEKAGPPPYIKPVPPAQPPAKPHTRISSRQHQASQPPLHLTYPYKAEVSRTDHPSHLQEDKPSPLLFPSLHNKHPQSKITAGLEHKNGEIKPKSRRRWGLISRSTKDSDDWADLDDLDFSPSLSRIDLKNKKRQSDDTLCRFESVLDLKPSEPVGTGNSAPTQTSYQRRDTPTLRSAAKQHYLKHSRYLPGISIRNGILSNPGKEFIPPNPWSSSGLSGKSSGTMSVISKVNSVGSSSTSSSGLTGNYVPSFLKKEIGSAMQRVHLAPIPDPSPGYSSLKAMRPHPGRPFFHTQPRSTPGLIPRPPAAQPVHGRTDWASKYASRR
# UniProt Q13470, sequence (whole entry, looked up): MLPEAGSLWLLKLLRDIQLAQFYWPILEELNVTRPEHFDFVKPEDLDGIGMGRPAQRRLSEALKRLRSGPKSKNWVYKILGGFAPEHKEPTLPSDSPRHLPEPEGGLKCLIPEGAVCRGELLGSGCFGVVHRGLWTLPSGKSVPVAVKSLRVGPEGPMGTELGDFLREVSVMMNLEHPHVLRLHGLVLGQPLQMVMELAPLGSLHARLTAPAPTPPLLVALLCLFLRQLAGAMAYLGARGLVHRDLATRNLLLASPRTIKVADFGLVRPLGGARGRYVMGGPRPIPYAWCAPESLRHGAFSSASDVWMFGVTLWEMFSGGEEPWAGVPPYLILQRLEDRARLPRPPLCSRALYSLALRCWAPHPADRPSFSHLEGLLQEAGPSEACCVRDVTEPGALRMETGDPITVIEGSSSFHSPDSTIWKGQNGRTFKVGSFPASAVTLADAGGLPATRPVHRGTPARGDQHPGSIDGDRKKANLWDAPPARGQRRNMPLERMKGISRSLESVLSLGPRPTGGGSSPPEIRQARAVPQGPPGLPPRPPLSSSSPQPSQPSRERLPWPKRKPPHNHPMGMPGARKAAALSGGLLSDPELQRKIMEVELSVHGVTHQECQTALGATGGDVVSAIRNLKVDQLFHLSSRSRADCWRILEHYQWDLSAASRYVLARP
# UniProt Q13043, sequence (whole entry, looked up): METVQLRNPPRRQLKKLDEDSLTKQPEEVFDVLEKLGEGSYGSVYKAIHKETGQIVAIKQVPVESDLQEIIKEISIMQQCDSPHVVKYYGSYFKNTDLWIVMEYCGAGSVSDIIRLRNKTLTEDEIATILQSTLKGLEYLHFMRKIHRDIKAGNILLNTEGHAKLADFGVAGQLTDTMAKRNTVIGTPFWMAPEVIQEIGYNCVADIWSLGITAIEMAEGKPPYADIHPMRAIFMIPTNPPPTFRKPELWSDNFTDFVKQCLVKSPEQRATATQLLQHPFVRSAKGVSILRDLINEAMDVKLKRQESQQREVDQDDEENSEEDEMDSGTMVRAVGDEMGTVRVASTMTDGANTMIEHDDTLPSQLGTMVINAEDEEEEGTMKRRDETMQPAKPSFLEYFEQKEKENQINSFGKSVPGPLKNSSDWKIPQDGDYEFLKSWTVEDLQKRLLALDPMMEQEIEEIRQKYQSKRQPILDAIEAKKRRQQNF
# UniProt Q13546, sequence (whole entry, looked up): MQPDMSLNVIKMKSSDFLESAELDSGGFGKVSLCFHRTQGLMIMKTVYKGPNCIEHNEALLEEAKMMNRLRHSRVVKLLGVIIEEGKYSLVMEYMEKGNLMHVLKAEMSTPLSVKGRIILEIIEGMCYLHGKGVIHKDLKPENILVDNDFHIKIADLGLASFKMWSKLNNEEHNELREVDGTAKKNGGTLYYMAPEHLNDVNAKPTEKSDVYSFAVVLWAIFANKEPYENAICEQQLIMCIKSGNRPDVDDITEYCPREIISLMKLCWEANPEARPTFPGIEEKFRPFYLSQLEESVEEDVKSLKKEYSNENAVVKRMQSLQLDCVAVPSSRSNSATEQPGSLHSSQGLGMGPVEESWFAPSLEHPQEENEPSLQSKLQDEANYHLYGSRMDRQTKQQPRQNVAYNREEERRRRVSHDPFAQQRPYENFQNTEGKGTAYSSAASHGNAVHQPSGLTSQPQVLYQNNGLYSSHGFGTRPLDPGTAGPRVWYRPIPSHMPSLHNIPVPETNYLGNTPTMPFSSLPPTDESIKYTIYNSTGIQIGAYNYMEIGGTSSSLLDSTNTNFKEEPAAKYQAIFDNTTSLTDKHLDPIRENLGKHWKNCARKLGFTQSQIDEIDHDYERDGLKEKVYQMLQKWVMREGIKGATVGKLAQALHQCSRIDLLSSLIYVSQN

# Sample 1 — technique: RNA Bind-n-Seq; form: RNA; matrix: in vitro; concentration: not given; reference: input RNA pool; reading: higher = stronger binding
# Target: RING finger protein unkempt homolog, zinc fingers 1-6, GST-SBP tag (UNK, Homo sapiens, UniProt Q9C0B0, residues 30-357)
# UniProt Q9C0B0, sequence (30-357, looked up): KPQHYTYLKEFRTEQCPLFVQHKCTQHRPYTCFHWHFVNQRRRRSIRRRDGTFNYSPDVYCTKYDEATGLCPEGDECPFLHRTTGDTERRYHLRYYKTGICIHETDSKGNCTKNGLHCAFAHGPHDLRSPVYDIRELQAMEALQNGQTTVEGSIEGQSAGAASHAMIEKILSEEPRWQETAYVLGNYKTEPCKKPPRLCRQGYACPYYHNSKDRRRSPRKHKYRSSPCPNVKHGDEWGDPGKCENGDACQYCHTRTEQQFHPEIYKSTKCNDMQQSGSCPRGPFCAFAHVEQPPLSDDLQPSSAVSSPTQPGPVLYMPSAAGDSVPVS
# Notes: RNA with constant flanks, human and mouse sites, ends assumed
Sequence,bound/input enrichment
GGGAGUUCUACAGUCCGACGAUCGAAGUGUGGCAGGUGAUCAUAGGAGCCAGAGCUGAGAUGACUUCAAAACACCAAGAGUACUUGAAGCUGGAAACCACUUGGAUGACUGCAGUUGGUCUUUCAGAGAUGGCAGCAGAAGCUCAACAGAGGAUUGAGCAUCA,0.446 ratio
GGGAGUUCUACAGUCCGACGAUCUAUUUACUCUCUUGGUCUUGGUAGCCCUAUUAUAUCAUUGCAGACACAGUGUUGUGCAUGUGUGUAUUGUAUAUGUGCACCAGCAUCAAACAUUGUGUAUCUGGAAGGAAAGCAGCAUGUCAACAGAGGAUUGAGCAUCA,0.222 ratio
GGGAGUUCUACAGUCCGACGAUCGAAGGUUCUAAGACGUGGGAUCGUUUCCAGAUGAGAAUUCACAAGCGACUCAUUGACUUGCACAGUCCUUCUGAGAUUGUUAAGCAGAUUACUUCCAUCAGUAUUGAGCCAGGAGUUGAGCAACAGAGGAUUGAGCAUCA,0.199 ratio
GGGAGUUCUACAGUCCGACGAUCGUUAUCAUUUGUGUGGAAGGAAAAGAAUUUCCUUGCCAUAGAGCUGUGCUCUCAGCCUGUAGCAGCUACUUCAGAGCUAUGUUUUGUAAUGACCACAGGGAAAGCCGAGAAAUGUUGGUUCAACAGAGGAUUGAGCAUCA,0.206 ratio
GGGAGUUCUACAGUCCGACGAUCCCAUUUAAAGACCGAGUCACCUGGGCUGGGGACCUUGACAAGAAAGAUGCAUCAAUCAAUAUAGAAAAUAUUCAGGCUGUUCACAAUGGCACCUAUAUCUGCGAUGUCAAAAAUCCUCCUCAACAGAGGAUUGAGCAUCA,1.28 ratio
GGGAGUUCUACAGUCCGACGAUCGUCUUGUGUUUUGGUUUUGGGGUUUUUGUUUUGUUUGUGUUUUGUUUGGCUUGUUUGUUUUUUAAGGGGAAAAAAGUUUGUAAUUAUUUCAUCCAAAUCUCCCGUUAUAUAUCUGUGAAUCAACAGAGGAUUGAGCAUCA,1.5 ratio
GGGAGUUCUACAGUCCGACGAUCGGGAUCCAGCAAGGCCUUCUCAGCCAGUCAACACGCACAGCCACCUUCCAGCAGAGAUUUGAUGCCCGGCAGAAGAUUGGCCUCUCAGAUGCCCGGCUCAAACUGGGAGUCAAGGAUGCCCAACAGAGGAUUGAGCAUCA,0.218 ratio
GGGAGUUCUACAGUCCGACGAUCGUUGACAGCUUUGAUGACAUGAACCUCUCGGAGUCCCUUCUCCGUGGCAUCUACGCGUAUGGUUUUGAGAAGCCCUCUGCCAUCCAGCAGCGAGCCAUUCUACCUUGUAUCAAGGGUUAUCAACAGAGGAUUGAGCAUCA,0.21 ratio

# Sample 2 — technique: aptamer microarray, sandwich; form: DNA with 2'F-ANA; matrix: in vitro; concentration: 200 nM; added: Cy3 exosite-II aptamer, 400 nM; reading: higher = stronger binding; sequence: GGTTGGTGTGGTTGG
# Target: Prothrombin, mature alpha-thrombin (F2, Homo sapiens, UniProt P00734)
# Notes: whole 15-mer aptamer, many near background
Modification,mean fluorescence intensity [a.u.]
2'F-ANA at 1 2 3 4 5 7 9 13 15,59.5
2'F-ANA at 10 14 15,107
2'F-ANA at 6 7 9 12 13 15,603
2'F-ANA at 3 4 6 8 10 11 13,184
2'F-ANA at 2 3 5 7 9 10 12 13 15,57
2'F-ANA at 2 3 6 9 13,568
2'F-ANA at 2 5 6 8 11,62.7
2'F-ANA at 1 3 4 5 7 8 12 13 14,50.1

# Sample 3 — technique: competition with immobilised ligand; concentration: 1 µM
# Structure (SMILES): O=S(=O)(NC1CCC(c2cc(F)ccc2F)(S(=O)(=O)c2ccc(Cl)cc2)CC1)C(F)(F)F (centres unmarked)
target,observed,remaining binding [%]
"Myosin light chain kinase, smooth muscle (MYLK, Homo sapiens, UniProt Q15746)",cell-free assay,100
"Serine/threonine-protein kinase 4 (STK4, Homo sapiens, UniProt Q13043)",cell-free assay,100
"1-phosphatidylinositol 3-phosphate 5-kinase (PIKFYVE, Homo sapiens, UniProt Q9Y2I7)",cell-free assay,60
"Mast/stem cell growth factor receptor Kit (KIT, Homo sapiens, UniProt P10721)",cell-free assay,100
"Serine/threonine-protein kinase ICK (CILK1, Homo sapiens, UniProt Q9UPZ9)",binding,85
"Activated CDC42 kinase 1 (TNK2, Homo sapiens, UniProt Q07912)",cell-free assay,96
"Protein kinase C delta type (PRKCD, Homo sapiens, UniProt Q05655)",cell-free assay,100
"BDNF/NT-3 growth factors receptor (NTRK2, Homo sapiens, UniProt Q16620)",cell-free assay,83
"Epidermal growth factor receptor (EGFR, Homo sapiens, UniProt P00533, L861Q)",cell-free assay,100
"Cyclin-dependent kinase-like 1 (CDKL1, Homo sapiens, UniProt Q00532)",cell-free assay,100
"Serine/threonine-protein kinase PLK2 (PLK2, Homo sapiens, UniProt Q9NYY3)",cell-free assay,100
"Non-receptor tyrosine-protein kinase TNK1 (TNK1, Homo sapiens, UniProt Q13470)",cell-free assay,98
"Tyrosine-protein kinase Srms (SRMS, Homo sapiens, UniProt Q9H3Y6)",cell-free assay,100
"Serine/threonine-protein kinase Nek10 (NEK10, Homo sapiens, UniProt Q6ZWH5)",cell-free assay,100
"Receptor-interacting serine/threonine-protein kinase 1 (RIPK1, Homo sapiens, UniProt Q13546)",cell-free assay,100

# Mixed results
SMILES,organism,test,system,setting,scale,endpoint,result
CNCC[C@@H](Oc1ccccc1C)c1ccccc1,Plasmodium berghei,inhibitor,"Huh-7, GFP-expressing sporozoites, liver stage","10 µM, 24 h",reference: untreated control,infection rate,102%

# For quick reference, copied from above (sample 2):
Modification,mean fluorescence intensity [a.u.]
2'F-ANA at 3 4 6 8 10 11 13,184
2'F-ANA at 6 7 9 12 13 15,603
2'F-ANA at 1 2 3 4 5 7 9 13 15,59.5
